Published values pooled from the literature.
Protocols differ between the studies behind these lines. Numbers after ± are the reported error.
SLC47A2: Multidrug and toxin extrusion protein 2 (SLC47A2, Homo sapiens, UniProt Q86VL8)
UniProt Q86VL8, sequence (whole entry, looked up): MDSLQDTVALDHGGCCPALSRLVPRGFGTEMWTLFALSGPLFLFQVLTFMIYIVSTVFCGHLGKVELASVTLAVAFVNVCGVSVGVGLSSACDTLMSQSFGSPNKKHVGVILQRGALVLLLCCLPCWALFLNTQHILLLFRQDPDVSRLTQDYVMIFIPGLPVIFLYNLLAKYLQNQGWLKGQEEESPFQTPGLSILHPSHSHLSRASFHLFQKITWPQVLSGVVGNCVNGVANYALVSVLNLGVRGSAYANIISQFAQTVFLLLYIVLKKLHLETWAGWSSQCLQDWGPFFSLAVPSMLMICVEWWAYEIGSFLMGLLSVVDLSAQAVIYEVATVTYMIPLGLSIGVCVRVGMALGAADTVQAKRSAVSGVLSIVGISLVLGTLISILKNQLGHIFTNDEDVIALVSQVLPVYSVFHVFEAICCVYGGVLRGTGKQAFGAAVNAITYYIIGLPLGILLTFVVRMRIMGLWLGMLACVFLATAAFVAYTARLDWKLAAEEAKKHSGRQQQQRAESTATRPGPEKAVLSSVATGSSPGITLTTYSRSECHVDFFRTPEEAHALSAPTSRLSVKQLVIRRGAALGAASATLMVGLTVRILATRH
Tumor necrosis factor receptor superfamily member 9/Nectin-4: Tumor necrosis factor receptor superfamily member 9/Nectin-4 (Homo sapiens, UniProt Q07011+Q96NY8)
UniProt Q07011, sequence (whole entry, looked up): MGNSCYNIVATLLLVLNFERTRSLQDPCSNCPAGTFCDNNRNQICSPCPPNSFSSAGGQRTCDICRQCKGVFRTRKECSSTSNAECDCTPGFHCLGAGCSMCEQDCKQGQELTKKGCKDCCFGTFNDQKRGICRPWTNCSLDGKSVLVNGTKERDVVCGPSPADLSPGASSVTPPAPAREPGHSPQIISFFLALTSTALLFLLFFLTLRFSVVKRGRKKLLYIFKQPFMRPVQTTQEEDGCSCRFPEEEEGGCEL
UniProt Q96NY8, sequence (whole entry, looked up): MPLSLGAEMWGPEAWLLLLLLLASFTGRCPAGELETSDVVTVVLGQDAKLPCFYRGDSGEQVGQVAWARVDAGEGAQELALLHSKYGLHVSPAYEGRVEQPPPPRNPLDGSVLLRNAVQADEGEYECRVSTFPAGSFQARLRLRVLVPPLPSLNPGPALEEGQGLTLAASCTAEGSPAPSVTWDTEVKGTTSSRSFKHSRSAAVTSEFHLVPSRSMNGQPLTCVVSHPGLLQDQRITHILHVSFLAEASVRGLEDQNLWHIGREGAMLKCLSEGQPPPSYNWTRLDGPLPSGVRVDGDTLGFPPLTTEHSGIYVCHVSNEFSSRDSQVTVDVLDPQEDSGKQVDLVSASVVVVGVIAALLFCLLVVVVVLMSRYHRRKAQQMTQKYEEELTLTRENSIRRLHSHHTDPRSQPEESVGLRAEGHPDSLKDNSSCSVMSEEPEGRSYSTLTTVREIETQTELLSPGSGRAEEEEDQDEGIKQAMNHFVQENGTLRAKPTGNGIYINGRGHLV
UniProt P08183, sequence (whole entry, looked up): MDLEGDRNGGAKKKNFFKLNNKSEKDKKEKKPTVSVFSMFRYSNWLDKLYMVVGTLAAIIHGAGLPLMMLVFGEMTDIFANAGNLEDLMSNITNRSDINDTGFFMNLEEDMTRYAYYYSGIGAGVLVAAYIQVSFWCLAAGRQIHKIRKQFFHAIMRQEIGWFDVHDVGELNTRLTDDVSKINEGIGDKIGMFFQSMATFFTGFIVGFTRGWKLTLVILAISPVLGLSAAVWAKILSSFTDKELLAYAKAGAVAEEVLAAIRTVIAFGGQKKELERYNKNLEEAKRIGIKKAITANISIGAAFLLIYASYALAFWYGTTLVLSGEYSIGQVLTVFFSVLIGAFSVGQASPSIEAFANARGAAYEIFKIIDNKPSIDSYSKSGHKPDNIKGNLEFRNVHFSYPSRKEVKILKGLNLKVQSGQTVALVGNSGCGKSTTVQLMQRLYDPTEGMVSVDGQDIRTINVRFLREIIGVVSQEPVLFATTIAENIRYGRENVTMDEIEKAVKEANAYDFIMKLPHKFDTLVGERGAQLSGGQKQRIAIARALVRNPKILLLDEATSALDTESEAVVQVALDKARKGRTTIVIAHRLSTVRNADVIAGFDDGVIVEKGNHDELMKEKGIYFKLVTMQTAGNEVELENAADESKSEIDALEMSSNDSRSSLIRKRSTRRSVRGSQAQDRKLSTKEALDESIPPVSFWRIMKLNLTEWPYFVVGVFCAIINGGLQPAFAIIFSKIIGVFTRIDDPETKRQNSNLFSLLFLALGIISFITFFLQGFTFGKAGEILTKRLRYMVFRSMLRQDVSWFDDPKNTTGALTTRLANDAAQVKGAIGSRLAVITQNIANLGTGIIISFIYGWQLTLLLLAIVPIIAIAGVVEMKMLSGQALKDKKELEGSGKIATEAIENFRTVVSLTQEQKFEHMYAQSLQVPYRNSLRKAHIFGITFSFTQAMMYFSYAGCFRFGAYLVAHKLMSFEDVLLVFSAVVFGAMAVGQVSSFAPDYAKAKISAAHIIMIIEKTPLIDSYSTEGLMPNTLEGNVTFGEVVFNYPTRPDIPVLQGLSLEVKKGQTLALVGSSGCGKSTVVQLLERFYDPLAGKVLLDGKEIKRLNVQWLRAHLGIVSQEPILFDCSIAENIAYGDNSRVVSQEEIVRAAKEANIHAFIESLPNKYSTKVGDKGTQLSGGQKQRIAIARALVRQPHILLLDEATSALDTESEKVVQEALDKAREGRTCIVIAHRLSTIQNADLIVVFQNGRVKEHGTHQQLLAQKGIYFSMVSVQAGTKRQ
UniProt Q9UNQ0, sequence (whole entry, looked up): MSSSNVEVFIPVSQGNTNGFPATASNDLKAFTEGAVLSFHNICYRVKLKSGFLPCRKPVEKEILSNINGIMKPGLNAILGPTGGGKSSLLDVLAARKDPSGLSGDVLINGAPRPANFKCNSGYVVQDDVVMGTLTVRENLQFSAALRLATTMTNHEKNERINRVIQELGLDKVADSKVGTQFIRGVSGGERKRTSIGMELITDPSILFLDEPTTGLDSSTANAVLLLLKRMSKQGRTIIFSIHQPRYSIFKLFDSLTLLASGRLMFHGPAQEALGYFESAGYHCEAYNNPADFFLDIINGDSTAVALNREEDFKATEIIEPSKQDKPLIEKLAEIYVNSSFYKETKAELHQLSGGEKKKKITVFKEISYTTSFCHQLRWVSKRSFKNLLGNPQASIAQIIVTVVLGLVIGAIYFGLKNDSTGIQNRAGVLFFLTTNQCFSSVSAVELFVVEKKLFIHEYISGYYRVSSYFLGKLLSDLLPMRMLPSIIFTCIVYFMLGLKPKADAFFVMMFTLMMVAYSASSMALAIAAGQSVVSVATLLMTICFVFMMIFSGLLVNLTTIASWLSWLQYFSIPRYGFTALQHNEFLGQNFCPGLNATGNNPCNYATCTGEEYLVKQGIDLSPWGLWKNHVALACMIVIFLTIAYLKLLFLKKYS
UniProt Q4U2R8, sequence (whole entry, looked up): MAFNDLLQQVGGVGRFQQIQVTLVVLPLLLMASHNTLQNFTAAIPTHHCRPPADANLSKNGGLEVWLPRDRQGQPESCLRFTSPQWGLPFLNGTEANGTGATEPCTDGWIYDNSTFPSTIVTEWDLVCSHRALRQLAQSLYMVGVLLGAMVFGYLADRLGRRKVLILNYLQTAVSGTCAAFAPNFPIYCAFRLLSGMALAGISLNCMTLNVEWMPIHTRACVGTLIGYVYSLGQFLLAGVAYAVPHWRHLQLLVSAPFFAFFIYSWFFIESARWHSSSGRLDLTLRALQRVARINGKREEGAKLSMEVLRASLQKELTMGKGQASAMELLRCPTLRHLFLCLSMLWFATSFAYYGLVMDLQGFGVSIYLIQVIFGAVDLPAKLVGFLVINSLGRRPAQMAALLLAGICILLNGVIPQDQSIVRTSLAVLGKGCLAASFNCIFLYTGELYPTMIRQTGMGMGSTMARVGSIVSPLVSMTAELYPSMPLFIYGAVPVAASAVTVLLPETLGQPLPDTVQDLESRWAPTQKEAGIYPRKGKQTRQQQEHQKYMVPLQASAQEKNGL

O=C(O)C(F)(F)C(F)(F)C(F)(F)C(F)(F)C(F)(F)C(F)(F)C(F)(F)F — CLint (SLC22A6 (Homo sapiens, UniProt Q4U2R8); uptake, substrate; HEK293 cells stably expressing SLC22A6, HBSS with HEPES; pH 7.4): 9.67 ± 3.3 µL/min/mg
Nc1ccc([O-])c(=O)cc1.Nc1ccc([O-])c(=O)cc1.Nc1ccc([O-])c(=O)cc1.[Bi+3] — log Ka (Bi(III); electronic spectroscopy): 18 ± 0.39
COc1cc2nc(N3CCN(C(=O)c4ccco4)CC3)nc(N)c2cc1OC — inhibition (SLC47A2; transport, inhibitor; transiently transfected cells; 100 µM, 10 (unit not given), with: thiamine): 115%
COc1ccc(CCNC(=O)c2cc(Nc3ccccc3)nc3ccccc23)cc1OC — cytotoxicity efficacy (Vero-E6; CellTiter-Glo ATP; concentration not given, 72 h, retest 8-point duplicates; baseline: DMSO 0%, hyamine -100%, more negative, more toxic): -11.8%
CCCC[C@@H]1NC(=O)[C@H](Cc2ccc(O)cc2)NC(=O)[C@@H]2CCCN2C(=O)[C@H](CC(N)=O)NC(=O)[C@H](C)NC(=O)[C@H](Cc2ccccc2)NC(=O)[C@@H]2CSCCC(=O)N3CN(CN(C3)C(=O)CCSC[C@H](NC(C)=O)C(=O)N[C@@H](CC(C)(C)C)C(=O)N3CCC[C@H]3C(=O)N[C@@H](CCC(=O)O)C(=O)N[C@H](CCCCNC(=O)CCc3cn(CCOCCOCCOCCOCCOCCC(=O)N[C@H]4CSCCC(=O)N5CN6CN(C5)C(=O)CCSC[C@H](NC(=O)[C@@H](CC(=O)O)NC(=O)[C@H](Cc5cccc7ccccc57)NC(=O)[C@@H]5CCCN5C4=O)C(=O)N[C@@H](CCSC)C(=O)N[C@@H](CCCCNC(=N)N)C(=O)N[C@@H](CC(=O)O)C(=O)N[C@@H](Cc4c[nH]c5ccccc45)C(=O)N[C@@H](CO)C(=O)N[C@@H]([C@@H](C)O)C(=O)N4CCC[C@H]4C(=O)N4C[C@H](O)C[C@H]4C(=O)N[C@@H](Cc4c[nH]c5ccccc45)C(=O)N[C@H](C(N)=O)CSCCC6=O)nn3)C(=O)N3CCC[C@H]3C(=O)N[C@@H](Cc3ccc(O)cc3)C(=O)N2)C(=O)CCSC[C@@H](C(N)=O)NC1=O — Emax (Tumor necrosis factor receptor superfamily member 9/Nectin-4; reporter gene, agonist, luciferase reporter; CD137 Jurkat reporter with HT-1376; 6 h, geometric mean; baseline: wells without compound): 5 fold
CC1(C)C(C=C(Cl)Cl)C1C(=O)OC(C#N)c1ccc(F)c(Oc2ccccc2)c1 (centres unmarked) — enzyme contribution (CES2 human cytosolic; 0.1 µM, age 1 year): 0.32%
Cc1cccc(C)c1OCC(=O)N[C@@H](Cc1ccccc1)[C@@H](O)C[C@H](Cc1ccccc1)NC(=O)[C@H](C(C)C)N1CCCNC1=O — inhibition (ABCG2 (Homo sapiens, UniProt Q9UNQ0); transport, inhibitor; 100 µM, 5 (unit not given), pH 7, with: CCK-8): 79.6%
COc1ccccc1C(=O)NC1CCCN(Cc2cccc(-c3ccc(C)c(Cl)c3)c2)C1 (centres unmarked) — cytotoxicity efficacy (Vero-E6; CellTiter-Glo ATP; concentration not given, 72 h, retest 8-point duplicates; baseline: DMSO 0%, hyamine -100%, more negative, more toxic): -32.3%
CCCC[C@@H]1NC(=O)[C@H](Cc2ccc(O)cc2)NC(=O)[C@@H]2CCCN2C(=O)[C@H](CC(=O)O)NC(=O)[C@H](C)NC(=O)[C@H](Cc2ccccc2)NC(=O)[C@@H]2CSCCC(=O)N3CN(CN(C3)C(=O)CCSCCC(=O)N[C@@H](CC(C)(C)C)C(=O)N3CCC[C@H]3C(=O)N[C@@H](CCC(=O)O)C(=O)N[C@H](CCCCNC(=O)CCc3cn(CCOCCOCCOCCOCCOCCC(=O)N[C@H]4CSCCC(=O)N5CN6CN(C5)C(=O)CCSC[C@H](NC(=O)[C@@H](CC(=O)O)NC(=O)[C@H](Cc5cccc7ccccc57)NC(=O)[C@@H]5CCCN5C4=O)C(=O)N[C@@H](CCSC)C(=O)N[C@@H](CCCCNC(=N)N)C(=O)N[C@@H](CC(=O)O)C(=O)N[C@@H](Cc4c[nH]c5ccccc45)C(=O)N[C@@H](CO)C(=O)N[C@@H]([C@@H](C)O)C(=O)N4CCC[C@H]4C(=O)N4C[C@H](O)C[C@H]4C(=O)N[C@@H](Cc4c[nH]c5ccccc45)C(=O)N[C@H](C(N)=O)CSCCC6=O)nn3)C(=O)N3CCC[C@H]3C(=O)N[C@@H](Cc3ccc(O)cc3)C(=O)N2)C(=O)CCSCCNC1=O — Emax (Tumor necrosis factor receptor superfamily member 9/Nectin-4; reporter gene, agonist, luciferase reporter; CD137 Jurkat reporter with HT-1376; 6 h, geometric mean; baseline: wells without compound): 34 fold
CCCCc1nc(Cl)c(CO)n1Cc1ccc(-c2ccccc2-c2nn[nH]n2)cc1 — inhibition (SLC47A2; transport, inhibitor; transiently transfected cells; 100 µM, 10 (unit not given), with: thiamine): 28.5%
CC(C)CC(=O)OC[C@H]1O[C@@](C#N)(c2ccc3c(N)ncnn23)[C@H](O)[C@@H]1O — recovery A to B (ABCB1 (Homo sapiens, UniProt P08183); Caco-2; 0.9 µM, 2 h): < 39.2%

Excerpt of the above:
CCCC[C@@H]1NC(=O)[C@H](Cc2ccc(O)cc2)NC(=O)[C@@H]2CCCN2C(=O)[C@H](CC(N)=O)NC(=O)[C@H](C)NC(=O)[C@H](Cc2ccccc2)NC(=O)[C@@H]2CSCCC(=O)N3CN(CN(C3)C(=O)CCSC[C@H](NC(C)=O)C(=O)N[C@@H](CC(C)(C)C)C(=O)N3CCC[C@H]3C(=O)N[C@@H](CCC(=O)O)C(=O)N[C@H](CCCCNC(=O)CCc3cn(CCOCCOCCOCCOCCOCCC(=O)N[C@H]4CSCCC(=O)N5CN6CN(C5)C(=O)CCSC[C@H](NC(=O)[C@@H](CC(=O)O)NC(=O)[C@H](Cc5cccc7ccccc57)NC(=O)[C@@H]5CCCN5C4=O)C(=O)N[C@@H](CCSC)C(=O)N[C@@H](CCCCNC(=N)N)C(=O)N[C@@H](CC(=O)O)C(=O)N[C@@H](Cc4c[nH]c5ccccc45)C(=O)N[C@@H](CO)C(=O)N[C@@H]([C@@H](C)O)C(=O)N4CCC[C@H]4C(=O)N4C[C@H](O)C[C@H]4C(=O)N[C@@H](Cc4c[nH]c5ccccc45)C(=O)N[C@H](C(N)=O)CSCCC6=O)nn3)C(=O)N3CCC[C@H]3C(=O)N[C@@H](Cc3ccc(O)cc3)C(=O)N2)C(=O)CCSC[C@@H](C(N)=O)NC1=O — Emax (Tumor necrosis factor receptor superfamily member 9/Nectin-4; reporter gene, agonist, luciferase reporter; CD137 Jurkat reporter with HT-1376; 6 h, geometric mean; baseline: wells without compound): 5 fold
